Published values of several laboratories.
Compare with care: the assays were run in different laboratories. ± marks the error that the study gave.
CYP3A4: Cytochrome P450 3A4 (CYP3A4, Homo sapiens, UniProt P08684)
Chain of UniProt P08684 (whole entry, looked up): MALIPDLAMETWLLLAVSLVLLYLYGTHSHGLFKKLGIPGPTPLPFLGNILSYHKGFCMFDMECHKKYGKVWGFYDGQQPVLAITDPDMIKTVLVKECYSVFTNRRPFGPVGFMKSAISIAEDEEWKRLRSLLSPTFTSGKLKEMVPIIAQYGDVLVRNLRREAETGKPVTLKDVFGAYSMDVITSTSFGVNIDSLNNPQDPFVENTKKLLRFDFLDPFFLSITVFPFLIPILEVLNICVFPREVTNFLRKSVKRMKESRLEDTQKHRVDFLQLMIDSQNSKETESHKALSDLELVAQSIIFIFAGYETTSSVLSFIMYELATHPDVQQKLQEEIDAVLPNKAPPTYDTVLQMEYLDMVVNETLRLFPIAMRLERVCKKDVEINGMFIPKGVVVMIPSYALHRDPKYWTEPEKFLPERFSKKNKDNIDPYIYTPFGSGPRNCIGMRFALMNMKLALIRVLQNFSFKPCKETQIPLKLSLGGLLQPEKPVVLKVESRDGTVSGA
SLC22A7: Solute carrier family 22 member 7 (SLC22A7, Homo sapiens, UniProt Q9Y694)
Chain of UniProt Q9Y694 (whole entry, looked up): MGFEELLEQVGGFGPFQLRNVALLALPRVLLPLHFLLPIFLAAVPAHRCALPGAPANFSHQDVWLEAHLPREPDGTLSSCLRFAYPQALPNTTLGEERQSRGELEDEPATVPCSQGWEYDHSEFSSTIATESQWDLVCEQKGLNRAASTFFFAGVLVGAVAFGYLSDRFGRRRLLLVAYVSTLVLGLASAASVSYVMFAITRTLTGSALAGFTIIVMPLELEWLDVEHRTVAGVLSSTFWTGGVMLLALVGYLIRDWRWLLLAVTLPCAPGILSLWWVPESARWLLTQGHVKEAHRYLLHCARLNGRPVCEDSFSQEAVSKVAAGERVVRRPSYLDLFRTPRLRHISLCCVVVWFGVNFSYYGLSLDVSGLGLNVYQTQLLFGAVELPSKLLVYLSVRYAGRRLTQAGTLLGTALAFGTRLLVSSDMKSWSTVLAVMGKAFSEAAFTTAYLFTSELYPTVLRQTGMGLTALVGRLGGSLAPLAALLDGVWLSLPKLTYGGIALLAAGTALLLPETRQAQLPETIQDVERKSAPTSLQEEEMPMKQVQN
AHR: Aryl hydrocarbon receptor (AHR, Homo sapiens, UniProt P35869)
Chain of UniProt P35869 (whole entry, looked up): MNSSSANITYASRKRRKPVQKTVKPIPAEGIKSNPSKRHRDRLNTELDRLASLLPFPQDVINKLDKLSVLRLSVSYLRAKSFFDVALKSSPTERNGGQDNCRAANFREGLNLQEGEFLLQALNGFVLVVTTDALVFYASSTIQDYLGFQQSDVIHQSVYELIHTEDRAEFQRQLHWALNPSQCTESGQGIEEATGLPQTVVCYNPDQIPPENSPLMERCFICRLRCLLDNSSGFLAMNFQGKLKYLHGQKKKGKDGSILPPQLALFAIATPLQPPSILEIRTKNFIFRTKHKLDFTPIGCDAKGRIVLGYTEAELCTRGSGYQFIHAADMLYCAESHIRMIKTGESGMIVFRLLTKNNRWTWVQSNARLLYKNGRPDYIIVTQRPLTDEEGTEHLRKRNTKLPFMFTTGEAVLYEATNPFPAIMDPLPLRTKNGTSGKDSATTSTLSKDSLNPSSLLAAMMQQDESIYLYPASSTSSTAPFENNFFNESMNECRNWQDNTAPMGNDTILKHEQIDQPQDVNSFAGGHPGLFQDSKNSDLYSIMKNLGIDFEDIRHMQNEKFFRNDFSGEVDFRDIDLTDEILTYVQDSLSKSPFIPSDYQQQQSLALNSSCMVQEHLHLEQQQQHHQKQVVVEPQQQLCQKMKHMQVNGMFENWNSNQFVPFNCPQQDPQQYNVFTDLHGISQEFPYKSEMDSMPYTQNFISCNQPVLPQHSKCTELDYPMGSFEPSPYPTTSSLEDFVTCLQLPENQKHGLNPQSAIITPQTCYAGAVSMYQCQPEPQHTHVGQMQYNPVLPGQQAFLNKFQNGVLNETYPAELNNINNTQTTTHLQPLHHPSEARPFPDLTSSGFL
Chain of UniProt O70423 (whole entry, looked up): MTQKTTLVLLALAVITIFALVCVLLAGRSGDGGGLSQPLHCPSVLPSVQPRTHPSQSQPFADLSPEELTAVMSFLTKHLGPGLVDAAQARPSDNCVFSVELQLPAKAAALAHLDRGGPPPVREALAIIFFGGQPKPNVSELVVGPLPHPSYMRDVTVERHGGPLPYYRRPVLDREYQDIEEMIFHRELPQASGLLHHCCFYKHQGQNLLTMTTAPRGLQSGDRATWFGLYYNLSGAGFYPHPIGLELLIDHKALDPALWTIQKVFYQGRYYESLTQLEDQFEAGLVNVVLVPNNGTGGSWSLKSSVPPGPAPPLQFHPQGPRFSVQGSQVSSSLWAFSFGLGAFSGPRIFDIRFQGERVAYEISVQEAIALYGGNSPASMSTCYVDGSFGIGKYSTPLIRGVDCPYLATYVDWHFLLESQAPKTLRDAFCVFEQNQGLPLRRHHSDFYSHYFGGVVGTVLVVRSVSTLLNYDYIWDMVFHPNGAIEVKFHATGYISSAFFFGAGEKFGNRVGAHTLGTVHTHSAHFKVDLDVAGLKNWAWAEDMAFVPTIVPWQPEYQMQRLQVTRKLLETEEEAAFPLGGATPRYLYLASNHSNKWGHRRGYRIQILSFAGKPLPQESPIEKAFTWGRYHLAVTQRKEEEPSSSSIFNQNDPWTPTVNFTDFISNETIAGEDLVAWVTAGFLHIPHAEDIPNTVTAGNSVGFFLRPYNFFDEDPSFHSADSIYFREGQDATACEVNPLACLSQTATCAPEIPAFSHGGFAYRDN
Chain of UniProt Q4U2R8 (whole entry, looked up): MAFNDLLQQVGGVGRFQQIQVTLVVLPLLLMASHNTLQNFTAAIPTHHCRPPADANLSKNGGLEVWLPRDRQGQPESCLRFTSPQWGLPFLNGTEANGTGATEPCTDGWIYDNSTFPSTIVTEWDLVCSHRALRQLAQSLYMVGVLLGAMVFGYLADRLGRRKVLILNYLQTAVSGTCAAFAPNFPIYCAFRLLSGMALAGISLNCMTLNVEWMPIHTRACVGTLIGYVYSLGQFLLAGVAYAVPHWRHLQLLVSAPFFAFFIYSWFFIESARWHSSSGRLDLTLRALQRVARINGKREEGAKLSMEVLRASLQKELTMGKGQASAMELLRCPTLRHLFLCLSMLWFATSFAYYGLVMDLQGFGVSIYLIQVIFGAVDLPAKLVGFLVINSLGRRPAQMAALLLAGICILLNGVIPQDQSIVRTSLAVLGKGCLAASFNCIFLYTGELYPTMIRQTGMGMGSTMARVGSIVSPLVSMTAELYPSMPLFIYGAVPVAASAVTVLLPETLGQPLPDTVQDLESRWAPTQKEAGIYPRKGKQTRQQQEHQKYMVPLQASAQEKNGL
Chain of UniProt P19785 (whole entry, looked up): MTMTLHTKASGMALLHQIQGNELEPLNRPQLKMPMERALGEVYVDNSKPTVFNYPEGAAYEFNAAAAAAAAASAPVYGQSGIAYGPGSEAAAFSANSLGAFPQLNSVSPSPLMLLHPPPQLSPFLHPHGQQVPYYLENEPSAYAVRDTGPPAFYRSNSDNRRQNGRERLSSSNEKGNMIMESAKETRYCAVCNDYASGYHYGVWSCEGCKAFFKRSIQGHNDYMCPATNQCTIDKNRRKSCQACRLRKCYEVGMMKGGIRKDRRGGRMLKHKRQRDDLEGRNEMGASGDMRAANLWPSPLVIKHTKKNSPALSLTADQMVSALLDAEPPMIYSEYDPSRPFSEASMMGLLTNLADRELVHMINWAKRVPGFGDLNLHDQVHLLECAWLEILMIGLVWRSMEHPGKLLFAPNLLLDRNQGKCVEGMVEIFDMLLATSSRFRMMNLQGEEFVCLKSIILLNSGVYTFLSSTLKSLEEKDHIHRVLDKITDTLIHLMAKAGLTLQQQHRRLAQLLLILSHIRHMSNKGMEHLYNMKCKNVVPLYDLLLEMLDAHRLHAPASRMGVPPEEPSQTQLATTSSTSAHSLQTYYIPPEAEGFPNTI
Chain of UniProt P20813 (whole entry, looked up): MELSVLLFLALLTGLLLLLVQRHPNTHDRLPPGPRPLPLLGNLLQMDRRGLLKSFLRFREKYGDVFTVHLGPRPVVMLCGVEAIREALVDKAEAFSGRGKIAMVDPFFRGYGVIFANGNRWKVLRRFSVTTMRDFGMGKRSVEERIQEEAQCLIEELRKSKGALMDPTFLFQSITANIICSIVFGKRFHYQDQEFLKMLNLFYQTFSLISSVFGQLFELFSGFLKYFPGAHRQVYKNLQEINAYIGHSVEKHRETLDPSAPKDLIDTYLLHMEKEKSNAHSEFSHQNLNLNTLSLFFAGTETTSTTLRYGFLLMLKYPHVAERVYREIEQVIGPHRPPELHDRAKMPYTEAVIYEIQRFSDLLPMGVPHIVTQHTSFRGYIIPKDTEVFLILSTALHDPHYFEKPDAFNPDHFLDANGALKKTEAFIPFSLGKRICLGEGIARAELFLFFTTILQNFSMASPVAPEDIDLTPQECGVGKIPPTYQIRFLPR

| SMILES | target | assay | system | setting | how to read | quantity | result |
| --- | --- | --- | --- | --- | --- | --- | --- |
| C=C(F)C(=O)N1CCN(c2nc(OC[C@@H]3CCCN3C)nc3c2CCN(c2cccc4cccc(Cl)c24)C3)C[C@@H]1CC#N | CYP3A4 |  | healthy volunteers, plasma | 200 mg, alone, geometric mean |  | AUC(0-t) | 1950 ng·h/mL |
| CCS(=O)(=O)N1CC(CC#N)(n2cc(-c3ncnc4[nH]ccc34)cn2)C1 | SLC22A6 (Homo sapiens, UniProt Q4U2R8) | substrate transport, inhibitor | cells expressing human OAT1 | Iu 0.072 µM, together with: 14C-PAH 2 µM |  | Iu/IC50 ratio | < 0.001 |
| CCc1cc(/C(C)=N/OCc2ccc(C3CCCCC3)c(C(F)(F)F)c2)ccc1CN1CC(C(=O)O)C1 | enzymes other than CYP2C9 | in vitro reaction phenotyping | human liver microsomes |  |  | fraction metabolized | 0.207 |
| C[C@H]1CN(C2COC2)CCN1c1ccc(Nc2cc(-c3ccnc(N4CCn5c(cc6c5CC(C)(C)C6)C4=O)c3CO)cn(C)c2=O)nc1 | human CYP2C19 |  | human liver microsomes | 1 µM, 60 min, pH 7.4, together with: (+)-N-3-benzylnirvanol 2 µM, NADPH | reference: 0 min | remaining compound | 56.2 ± 5.7% |
| CCCCN1CCCCC1C(=O)Nc1c(C)cccc1C (stereo not drawn) | H+/organic cation antiporter | cell uptake | hCMEC/D3 |  |  | intrinsic clearance | 6.9 µL/min/mg protein |
| C=CC(=O)N1C[C@H](Nc2ncnc3[nH]ccc23)CC[C@@H]1C | CYP3A | substrate | human, plasma | oral, 30 mg single dose, cpd alone |  | AUC(0-t) | 264 ng·h/mL |
| C=CC(=O)N(C)CCOc1c(N)ncnc1-c1cc(F)cc(NC(=O)c2ccc(C3CC3)cc2F)c1C | Cytochrome P450 2B6 (CYP2B6, Homo sapiens, UniProt P20813) |  | recombinant human CYP |  |  | fraction metabolised by CYP | 0.3% |
| CC(CN(C)C)CN1c2ccccc2CCc2ccccc21 (stereo not drawn) | H+/organic cation antiporter | cell uptake | hCMEC/D3 |  |  | intrinsic clearance | 100 µL/min/mg protein |
| Cc1cc(Nc2ncnc3ccc(NC4=NC(C)(C)CO4)cc23)ccc1Oc1ccn2ncnc2c1 | CYP3A4 |  | human, plasma | oral, 300 mg, day 1, single dose alone |  | CL/F, mean | 93.5 L/h |
| COc1cc(CC(=O)O)ccc1O | SLC22A7 | substrate | HEK293 control cells |  |  | uptake rate | 109 ± 4.4 pmol/min/mg protein |
| CCCCNc1ccc(C(=O)OCCN(C)C)cc1 | H+/organic cation antiporter | cell uptake | hCMEC/D3 |  |  | intrinsic clearance | 19.8 µL/min/mg protein |
| C[S+](C)[O-] | human HLA-A*24:02 peptide complex | nanoDSF |  | 20% (v/v), pH 7.6, ramp 1.0 °C/min |  | melting temperature | 48.9 ± 0.1 °C |
| CC(C)NCC(O)COc1ccc(COCCOC(C)C)cc1 (stereo not drawn) | H+/organic cation antiporter | cell uptake | hCMEC/D3 |  |  | intrinsic clearance | 13 µL/min/mg protein |
| CC[C@H]1[C@@H](O)[C@@H]2[C@H](CC[C@]3(C)[C@@H]([C@H](C)CCNC(=O)NS(=O)(=O)c4ccc(C(C)(C)C)cc4)CC[C@@H]23)[C@@]2(C)CC[C@@H](O)C[C@@H]12 | CYP3A4 | substrate | human, plasma | 10 mg, alone, study day 1 |  | Cmax mean | 33.4 ng/mL |
| COC(=O)c1cccc(C(=O)c2c[nH]c3cccc(Cl)c23)n1 | AHR | reporter gene, agonist, XRE luciferase | HepG2 | 10 µM | reference: ITE | activity at 10 µM | 35% |
| CN(C)CCOC(C)(c1ccccc1)c1ccccn1 (stereo not drawn) | H+/organic cation antiporter | cell uptake | hCMEC/D3 |  |  | intrinsic clearance | 20.1 µL/min/mg protein |
| CC(C)=CCc1c(O)cc2c(c1O)C(=O)C[C@@H](c1ccc(O)cc1)O2 | human CYP2D6 |  |  | 1 µM, pH 7.4 |  | inhibition | < 10% |
| Cc1[nH]c2ccccc2c1C(=O)c1ccccc1 | AHR | reporter gene, agonist, XRE luciferase | HepG2 | 10 µM | reference: ITE | activity at 10 µM | 7% |
| Oc1ccc([C@@H]2Oc3ccc(O)cc3[C@@H]3CCC[C@@H]32)cc1 | Estrogen receptor (Mus musculus, UniProt P19785) | agonist | female immature mouse | oral, 4 days |  | uterotrophic effective dose | 100 mg/kg |
| NCc1cc2c(cc1F)C(=O)N(C1CCC(=O)NC1=O)C2 (stereo not drawn) | Amine oxidase [copper-containing] 3 (Mus musculus, UniProt O70423) | substrate, LC-MS/MS | recombinant mouse enzyme | 10 µM, 0 h, pH 7.4, together with: inhibitor 0.25 µM |  | concentration | 8.4 µM |
| CCCNC(C)C(=O)Nc1c(C)csc1C(=O)OC (stereo not drawn) | H+/organic cation antiporter | cell uptake | hCMEC/D3 |  |  | intrinsic clearance | 3.9 µL/min/mg protein |
| Nc1nc2c(ncn2[C@@H]2O[C@@H]3COP(=O)(O)O[C@H]3[C@H]2O)c(=O)[nH]1 | SLC22A7 |  | HEK293 control cells |  |  | uptake velocity | 1.5 ± 0.5 pmol/min/mg protein |
| CCCCC1=NC2(CCCC2)C(=O)N1Cc1ccc(-c2ccccc2S(=O)(=O)Nc2noc(C)c2C)c(COCC)c1 | CYP3A4 | substrate | human male, plasma | oral, together with: itraconazole | reference: with over without itraconazole | Cmax ratio | 1.25 |
| Cc1nc2n(c(=O)c1CCN1CCC(c3noc4cc(F)ccc34)CC1)CCCC2 | H+/organic cation antiporter | cell uptake | hCMEC/D3 |  |  | intrinsic clearance | 26.3 µL/min/mg protein |

Repeated from above:
| SMILES | target | assay | system | setting | how to read | quantity | result |
| --- | --- | --- | --- | --- | --- | --- | --- |
| CC(C)NCC(O)COc1ccc(COCCOC(C)C)cc1 (stereo not drawn) | H+/organic cation antiporter | cell uptake | hCMEC/D3 |  |  | intrinsic clearance | 13 µL/min/mg protein |
| CCc1cc(/C(C)=N/OCc2ccc(C3CCCCC3)c(C(F)(F)F)c2)ccc1CN1CC(C(=O)O)C1 | enzymes other than CYP2C9 | in vitro reaction phenotyping | human liver microsomes |  |  | fraction metabolized | 0.207 |
| Nc1nc2c(ncn2[C@@H]2O[C@@H]3COP(=O)(O)O[C@H]3[C@H]2O)c(=O)[nH]1 | SLC22A7 |  | HEK293 control cells |  |  | uptake velocity | 1.5 ± 0.5 pmol/min/mg protein |
